# Assay results collected from several papers.
# Numbered parts are unrelated; each lists some results of a single study.

# Sample 1 — method: RNA Bind-n-Seq; molecule type: RNA; matrix: in vitro; tested at: not given; relative to: input RNA pool; direction: higher = stronger binding
# Target: RING finger protein unkempt homolog, zinc fingers 1-6, GST-SBP tag (UNK, Homo sapiens, UniProt Q9C0B0, residues 30-357)
# Notes: RNA with constant flanks, human-mouse chimeric sites, ends assumed
# Residues (chain): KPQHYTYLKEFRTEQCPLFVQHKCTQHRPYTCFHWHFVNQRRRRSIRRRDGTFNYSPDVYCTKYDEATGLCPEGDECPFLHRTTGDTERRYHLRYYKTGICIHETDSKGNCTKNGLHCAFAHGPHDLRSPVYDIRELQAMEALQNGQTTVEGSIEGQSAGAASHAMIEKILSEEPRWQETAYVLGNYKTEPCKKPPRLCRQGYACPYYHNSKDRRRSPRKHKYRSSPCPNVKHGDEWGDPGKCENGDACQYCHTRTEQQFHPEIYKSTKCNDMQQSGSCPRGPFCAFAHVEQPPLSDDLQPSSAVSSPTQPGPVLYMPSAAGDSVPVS
Sequence,bound/input enrichment
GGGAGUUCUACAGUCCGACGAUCUCAGGAACCCAGACAAACAUGAAUGUAAAUGAAGUCAUUAGCAACAGAGCAAUUGAAAUGUUAGGAGGUGAACUUGGCAGCAAGAUACCUGUGCAUCCCAAUGAUCAUGUUAACAAAAGCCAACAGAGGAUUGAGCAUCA,0.356 ratio
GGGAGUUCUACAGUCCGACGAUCAGUUCCAAACCACCAUCAGAAAUGAAGAUGAGAUUACCCAGACGAGCCCAAAACCGCGCGCUACAGAAAAGUAAACUUAACCUUGCAGAGUUCCUUAAUGAAGAUACAAGUUAAGAGAGCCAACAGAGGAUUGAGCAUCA,0.186 ratio
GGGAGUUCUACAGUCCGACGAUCCCCUCCCCGGGCCACCCACCCCUCCCGGCUCCCCGCCGAGAUCCAGGUUUCUUCUUAUUUCAUAGCCAAUAAGAAAAAUGUUCUACGCACAUUUUGUCCUCAGUAAACGAGGGCCUCUGGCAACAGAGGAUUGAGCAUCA,0.661 ratio
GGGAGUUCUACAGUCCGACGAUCCGCUGGCCCAAGCUGAUGGACUCUGAUGGCCUCCAUCUCUCAGGCACGUGUGCCUUCUCUUAGUCCCUGUUUUCGGGAUGUUAUGAAUCUCAGUACUGUUUGACAGAAGCAGUUAUGUUGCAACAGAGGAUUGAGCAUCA,0.177 ratio
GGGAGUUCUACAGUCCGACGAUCAUCAAAUACUUUGGGGACAUCAUUAGUGUGGGACAGAGACUGUUGCAAGGAGCUCGGAUCUUAGGGAUUCCAGUUAUCAUAACGGAACAAUACCCCAAAGGUCUUGGGAGCACGGUUCAACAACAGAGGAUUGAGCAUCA,0.179 ratio
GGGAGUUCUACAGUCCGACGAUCGUCAACAGCUGCCUCAAUCCCAUUCUCUAUGCUUUCUUGGAUGAGAACUUCAAGGCCUGCUUCCGCAAGUUCUGCUGUGCAUCUGCCCUGCGCCGGGACGUGCAGGUGUCUGACCGCGUGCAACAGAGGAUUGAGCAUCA,0.458 ratio
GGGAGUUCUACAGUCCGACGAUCUUUCUACUGCAGCAAACGAUGCUAAGAAUUAAGGAUCCUAAGAAGUCCCUGGAUUUUUAUACUAGAGUUCUUGGACUGACGCUAAUCCAGAAGCUUGACUUCCCUGCUAUGAAGUUCUCGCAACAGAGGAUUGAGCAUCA,0.0851 ratio
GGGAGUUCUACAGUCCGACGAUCCAGCCUCAGAGCCCAGACUUCCUGGACAUUACCAACCCCAAAGCCGUAUUAGAAAAUGCAUUGAGAAACUUCGCCUGUCUGACGACUGGAGAUGUGAUUGCUAUCAACUACAAUGAGAAGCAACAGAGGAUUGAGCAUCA,0.374 ratio

# Sample 2 — organism: SARS-CoV-2; read-out: cytopathic effect; cell line: Vero E6; tested at: 10 µM
SMILES,inhibition
Cn1sc(=O)n(Cc2ccccc2)c1=O,2.6%
COc1cc(C[C@@H]2NCCc3cc(O)c(O)cc32)cc(OC)c1OC,7.3%
CCCC[C@H](NC(=O)[C@@H]1[C@@H]2[C@H](CN1C(=O)[C@@H](NC(=O)NC1(CS(=O)(=O)C(C)(C)C)CCCCC1)C(C)(C)C)C2(C)C)C(=O)C(=O)NC1CC1,2.8%
Nc1nnc(Sc2ncc([N+](=O)[O-])s2)s1,-33.1%

# Sample 3 — mode: inhibitor; tested at: 20 µM
# Target: Replicase polyprotein 1ab, nsp13 helicase (rep, Severe acute respiratory syndrome coronavirus 2, UniProt P0DTD1)
Structure (SMILES),inhibition [%]
CCOCc1nc2c(N)nc3ccccc3c2n1CC(C)(C)O,5.74
O=c1c2c(c1=O)N(CCP(=O)(O)O)CCCN2,85.8
Cc1cccc(C)c1NC(=O)c1ccc(N)cc1,2.1
CC#CC(=O)N1CC[C@@H](n2c(=O)n(-c3ccc(Oc4ccccc4)cc3)c3c(N)ncnc32)C1,14.4
CCCCN1C[C@H](O)[C@@H](O)[C@H](O)[C@H]1CO,4.19
CC(C)CNc1nc(-c2cccc3ncccc23)cn2c(-c3ccc(C(=O)NC4CC4)cc3)cnc12,2.41
Cc1ccc(Cl)cc1N(CC(=O)Nc1c(F)cccc1F)S(C)(=O)=O,3.1
CN1C[C@@H](NS(=O)(=O)N(C)C)C[C@@H]2c3cccc4c3c(cn4C)C[C@H]21,4.15
O=C(O)P(=O)(O)O,0.28
O=S(=O)(O)CCSSCCS(=O)(=O)O,0.85
CC(=O)Nc1c(I)c(C(=O)O)c(I)c(N(C)C(C)=O)c1I,-5.17
CCN(CCCOc1ccc2c(Nc3cc(CC(=O)Nc4cccc(F)c4)[nH]n3)ncnc2c1)CCOP(=O)(O)O,0.27
CC1(C)O[C@@H]2C[C@H]3[C@@H]4C[C@H](F)C5=CC(=O)C=C[C@]5(C)[C@H]4[C@@H](O)C[C@]3(C)[C@]2(C(=O)CO)O1,1.86
Oc1ccc(/C=C/c2cc(O)cc(O)c2)cc1,5.53
Cc1o[nH]c(=O)c1C[C@H](N)C(=O)O,2.18
CCOc1ccccc1-n1c(C(C)N2CCN(C(=O)COc3ccc(Cl)cc3)CC2)nc2ccccc2c1=O (stereo not drawn),0.49
CCOc1ccc(-c2ccc(Cn3c(CC(C)(C)C(=O)O)c(SC(C)(C)C)c4cc(OCc5ccc(C)cn5)ccc43)cc2)cn1,2.5
Oc1ccc2ccccc2c1,3.89
CCCCN(CC)c1c([N+](=O)[O-])cc(C(F)(F)F)cc1[N+](=O)[O-],5.54
COc1cccc(OC)c1C(=O)N[C@@H]1C(=O)N2[C@@H]1SC(C)(C)[C@@H]2C(=O)O,4.46
CCCCCCCC/C=C/C(=O)O,2.96
O=C(O)C1=CCCNC1,8.76
O=C(O)CCc1ccc(NCc2cccc(Oc3ccccc3)c2)cc1,2.11
COc1ccc(-c2cc(=O)c3c(OC)c(OC)c(OC)c(OC)c3o2)cc1OC,1.93
CC1CCN(CC[C@H]2CCCN2S(=O)(=O)c2cccc(O)c2)CC1,5.72

# Sample 4 — method: RNA Bind-n-Seq; molecule type: RNA; matrix: in vitro; tested at: 200 nM; notes: whole 134-nt RNA, ends assumed; with: 150 mM KCl; relative to: input library; direction: higher = stronger binding
# Target: Fragile X messenger ribonucleoprotein 1, C-terminal low-complexity region (Fmr1, Mus musculus, UniProt P35922)
Sequence,log2 enrichment
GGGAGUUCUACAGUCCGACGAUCGUCCUGUGCUACACAUCGUAUGUACCGAAUCAAACCCCCAAAUUUUUAAACCCCCAAAAAAGUAUUAUGUUACGCCGUUCGGAUCUGCACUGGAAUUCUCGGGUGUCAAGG,-0.244
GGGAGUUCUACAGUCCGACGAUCAAACUUUAGAGGAGGAUCUGAUGGAUAUGGCAGUGGACGUGGAUUUGGGGAUGGCUAUAAUGGGUAUGGAGGAGGACCUGGAGGUGGCAAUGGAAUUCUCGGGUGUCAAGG,0.353
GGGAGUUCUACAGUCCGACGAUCCACAGACAACACGCACCCACACAGACAAAAAGGGAAGGGGUUGGGAUGGGGACAGGGUGCACAGCAGGGCGGGGUAGGACCCCAGCCCCUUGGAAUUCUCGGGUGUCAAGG,1.19
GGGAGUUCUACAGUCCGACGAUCUAACUUUAGAGGAGGAUCUGAUGGAUAUGGCAGUGGACGUGUAUUUGGGGAUGGCUAUAAUGGGUAUGGAGGAGGACCUGGAGGUGGCAAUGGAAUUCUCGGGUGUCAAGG,0.2
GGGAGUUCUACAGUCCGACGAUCUGGGAGGUGGAUUUUGUUUAUUUUUUUAGCUCAUUUCCAGGGGUGGGAAUUUUUUUUUAAUAUGUGUCAUGAAUAACGUUGUUUUUGAAAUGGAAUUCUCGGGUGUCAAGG,0.208
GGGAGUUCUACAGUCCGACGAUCCCUCAAGUCCUGUGCUACACAUCGUAUGUACCGAAUCGGCGGGGCGGGCGGGAAAGUAUUAUGUUACGCCGUUCGGAUCUGCACUUCCAGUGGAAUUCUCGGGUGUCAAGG,1.24
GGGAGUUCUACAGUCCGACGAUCUGGGAGGUGGAUUUUGUUUAGUUUUUUAGCUCAUUUCCAGGGGUGGGAAUUUUUUUUUAAUAUGUGUCAUGAAUAAAGUUGUUUUUGAAAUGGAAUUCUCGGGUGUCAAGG,0.114
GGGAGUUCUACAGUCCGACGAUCGCAGGAAGUAAAAACAAAUGGAAAUGCUUCGGAUAGUGGCAGGGGUGGAGGUUGCUAAGGAAAGGGUGGGAUGGGAGUGGGUAAAGAGUUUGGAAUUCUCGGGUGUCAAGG,0.239

# Sample 5 — method: protein-binding microarray; molecule type: double-stranded DNA, one strand shown; matrix: in vitro; tested at: 2540 nM top; notes: 60-bp whole probe; with: salmon DNA 0.4 mg/ml; relative to: random background probes; direction: higher = stronger binding; all sequences stand within: GCCTAGCAC … GTCTTGATTCGCTTGACGCTGCTG
# Target: Interferon regulatory factor 3, full length, phosphomimetic (IRF3, Homo sapiens, UniProt Q14653, residues 1-427, S386D/S396D/S398D/S402D/T404D/S405D)
# Target sequence (chain): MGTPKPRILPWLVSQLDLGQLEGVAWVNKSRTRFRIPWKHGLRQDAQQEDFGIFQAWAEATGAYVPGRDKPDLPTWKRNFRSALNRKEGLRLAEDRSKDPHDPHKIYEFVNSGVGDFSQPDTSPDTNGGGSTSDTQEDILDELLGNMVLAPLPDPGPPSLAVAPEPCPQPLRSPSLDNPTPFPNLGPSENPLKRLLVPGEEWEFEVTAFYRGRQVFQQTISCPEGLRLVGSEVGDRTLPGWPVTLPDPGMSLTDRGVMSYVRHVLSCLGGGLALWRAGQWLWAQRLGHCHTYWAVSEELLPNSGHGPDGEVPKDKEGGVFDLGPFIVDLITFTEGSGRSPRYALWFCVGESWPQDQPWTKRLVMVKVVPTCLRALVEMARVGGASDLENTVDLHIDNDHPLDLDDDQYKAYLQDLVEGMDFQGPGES
Sequence,fitted relative affinity [z-score]
AGAGTGCTCATGCTTCTTAGGGTGCTA,-0.579
TCAGATTTCAGTTCCGATTAGTGCTAG,4.02
GAAGGTCACAAAGACTTCATGTGCTAG,-0.215
TTAGATTTCAGTTTCGATTCGTGCTAG,7.51
GACGAACTGAGTCTCGAGAGGTGCTAG,-0.468
TTAGGTCTCCTTTTCCTTTTGTGCTAG,6
GACTTTTTAGATTTTTTTTCGTGCTAG,1.26
GACGGACTGTGGACTGGGGACGTGCTA,-0.861

# Sample 6 — cell line: HEK-293T/ACE2; tested at: 10 µM; time: 16 h; relative to: vehicle
Compound,viability
O=c1[nH]c(=O)n([C@H]2C[C@H](O)[C@@H](CO)O2)cc1I,96.5%
C=CC1=C(C(=O)O)N2C(=O)[C@@H](NC(=O)/C(=N\OCC(=O)O)c3csc(N)n3)[C@H]2SC1,100%
C[N+]1(C)CCCC(OC(=O)C(O)(c2ccccc2)c2ccccc2)C1 (stereo not drawn),99.8%
NS(=O)(=O)c1cc2c(cc1Cl)N=C(CSCc1ccccc1)NS2(=O)=O,101%

# Repeated from above (sample 5):
Sequence,fitted relative affinity [z-score]
TCAGATTTCAGTTCCGATTAGTGCTAG,4.02
GACTTTTTAGATTTTTTTTCGTGCTAG,1.26
TTAGATTTCAGTTTCGATTCGTGCTAG,7.51
